Experimental data pooled from the literature.
± gives the spread as reported.
Kir3.1/Kir3.2: Kir3.1/Kir3.2 (Homo sapiens, UniProt P48051+P48549)
Chain of UniProt P48051 (whole entry, looked up): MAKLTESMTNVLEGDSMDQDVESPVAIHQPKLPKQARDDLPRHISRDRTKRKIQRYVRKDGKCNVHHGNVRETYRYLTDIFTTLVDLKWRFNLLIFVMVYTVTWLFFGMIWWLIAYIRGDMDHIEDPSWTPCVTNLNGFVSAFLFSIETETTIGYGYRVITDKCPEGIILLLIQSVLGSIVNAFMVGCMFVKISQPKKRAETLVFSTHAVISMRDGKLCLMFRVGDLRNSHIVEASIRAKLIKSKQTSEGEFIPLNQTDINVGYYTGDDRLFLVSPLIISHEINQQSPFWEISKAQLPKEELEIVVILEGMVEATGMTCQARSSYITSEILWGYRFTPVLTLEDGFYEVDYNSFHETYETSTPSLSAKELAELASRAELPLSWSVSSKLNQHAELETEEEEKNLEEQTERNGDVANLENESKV
Chain of UniProt P48549 (whole entry, looked up): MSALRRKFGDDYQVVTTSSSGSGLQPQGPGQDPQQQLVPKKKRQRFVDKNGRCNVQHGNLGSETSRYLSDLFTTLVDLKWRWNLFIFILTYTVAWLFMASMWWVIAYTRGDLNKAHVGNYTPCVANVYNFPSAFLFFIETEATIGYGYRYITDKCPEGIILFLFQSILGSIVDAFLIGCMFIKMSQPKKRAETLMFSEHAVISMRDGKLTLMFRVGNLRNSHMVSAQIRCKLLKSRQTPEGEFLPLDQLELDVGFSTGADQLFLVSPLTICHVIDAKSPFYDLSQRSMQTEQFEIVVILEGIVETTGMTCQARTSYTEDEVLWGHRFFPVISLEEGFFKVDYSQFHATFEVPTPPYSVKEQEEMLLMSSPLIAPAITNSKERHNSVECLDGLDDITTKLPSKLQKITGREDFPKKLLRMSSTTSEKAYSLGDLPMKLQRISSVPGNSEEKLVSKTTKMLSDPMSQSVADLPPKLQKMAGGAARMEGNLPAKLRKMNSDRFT
GABA-A receptor; alpha-1/beta-3/gamma-2: GABA-A receptor; alpha-1/beta-3/gamma-2 (Homo sapiens, UniProt P14867+P18507+P28472)
Chain of UniProt P18507 (whole entry, looked up): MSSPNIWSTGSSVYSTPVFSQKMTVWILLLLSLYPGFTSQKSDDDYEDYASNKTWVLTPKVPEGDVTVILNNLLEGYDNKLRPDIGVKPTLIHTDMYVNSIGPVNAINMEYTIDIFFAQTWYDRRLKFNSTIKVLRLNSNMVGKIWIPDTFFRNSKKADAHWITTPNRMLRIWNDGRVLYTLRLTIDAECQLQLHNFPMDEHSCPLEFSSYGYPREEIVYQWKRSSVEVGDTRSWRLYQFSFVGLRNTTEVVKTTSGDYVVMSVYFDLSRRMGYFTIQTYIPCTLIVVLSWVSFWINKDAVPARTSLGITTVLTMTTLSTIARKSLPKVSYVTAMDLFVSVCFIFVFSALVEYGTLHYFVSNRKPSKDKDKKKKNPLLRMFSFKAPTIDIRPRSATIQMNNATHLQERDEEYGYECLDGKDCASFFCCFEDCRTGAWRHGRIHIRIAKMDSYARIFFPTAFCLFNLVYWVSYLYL
Chain of UniProt P28472 (whole entry, looked up): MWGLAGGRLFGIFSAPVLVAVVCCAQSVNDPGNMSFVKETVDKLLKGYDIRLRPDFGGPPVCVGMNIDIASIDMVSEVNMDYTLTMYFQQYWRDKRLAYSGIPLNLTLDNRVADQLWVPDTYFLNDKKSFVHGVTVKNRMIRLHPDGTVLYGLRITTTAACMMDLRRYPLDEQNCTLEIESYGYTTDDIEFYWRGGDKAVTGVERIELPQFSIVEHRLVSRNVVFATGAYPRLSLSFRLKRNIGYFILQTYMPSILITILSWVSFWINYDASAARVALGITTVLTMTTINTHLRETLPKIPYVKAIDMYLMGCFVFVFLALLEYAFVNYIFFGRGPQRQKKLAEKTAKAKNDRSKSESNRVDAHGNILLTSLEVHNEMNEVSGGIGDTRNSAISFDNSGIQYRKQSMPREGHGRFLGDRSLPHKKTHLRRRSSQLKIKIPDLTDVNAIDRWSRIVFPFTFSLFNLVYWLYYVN
Chain of UniProt P14867 (whole entry, looked up): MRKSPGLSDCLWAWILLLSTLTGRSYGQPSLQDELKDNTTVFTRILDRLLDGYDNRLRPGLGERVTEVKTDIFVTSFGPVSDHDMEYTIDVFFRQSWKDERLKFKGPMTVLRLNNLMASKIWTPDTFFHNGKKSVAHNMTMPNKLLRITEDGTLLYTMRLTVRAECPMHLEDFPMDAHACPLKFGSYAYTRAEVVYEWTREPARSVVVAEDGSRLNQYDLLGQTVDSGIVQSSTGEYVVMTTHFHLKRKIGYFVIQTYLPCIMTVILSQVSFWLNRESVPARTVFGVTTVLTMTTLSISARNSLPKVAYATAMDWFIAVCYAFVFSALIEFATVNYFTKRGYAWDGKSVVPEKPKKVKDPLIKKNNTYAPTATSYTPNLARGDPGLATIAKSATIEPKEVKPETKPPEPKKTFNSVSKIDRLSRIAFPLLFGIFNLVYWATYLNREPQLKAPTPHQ
Chain of UniProt P34995 (whole entry, unmodified, looked up): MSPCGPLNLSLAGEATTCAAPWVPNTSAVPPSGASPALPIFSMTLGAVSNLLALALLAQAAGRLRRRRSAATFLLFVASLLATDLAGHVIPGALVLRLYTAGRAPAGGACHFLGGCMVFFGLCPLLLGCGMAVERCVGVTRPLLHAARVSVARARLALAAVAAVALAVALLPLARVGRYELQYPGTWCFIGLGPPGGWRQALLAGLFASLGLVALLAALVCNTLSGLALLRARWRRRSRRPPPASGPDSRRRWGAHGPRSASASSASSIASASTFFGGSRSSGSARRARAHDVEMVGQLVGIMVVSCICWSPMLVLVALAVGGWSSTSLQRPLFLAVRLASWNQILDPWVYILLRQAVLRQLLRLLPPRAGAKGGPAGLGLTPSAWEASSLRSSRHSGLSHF
Chain of UniProt P35414 (whole entry, looked up): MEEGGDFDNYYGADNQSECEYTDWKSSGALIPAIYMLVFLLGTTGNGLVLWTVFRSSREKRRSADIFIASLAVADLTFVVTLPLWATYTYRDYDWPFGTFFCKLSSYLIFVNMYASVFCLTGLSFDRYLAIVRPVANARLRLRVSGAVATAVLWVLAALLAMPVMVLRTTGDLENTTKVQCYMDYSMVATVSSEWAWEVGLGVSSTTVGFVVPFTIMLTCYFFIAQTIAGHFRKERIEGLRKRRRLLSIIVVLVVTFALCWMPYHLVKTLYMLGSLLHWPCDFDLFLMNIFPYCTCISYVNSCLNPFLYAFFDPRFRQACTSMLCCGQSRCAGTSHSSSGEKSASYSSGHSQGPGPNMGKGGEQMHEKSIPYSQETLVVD
Chain of UniProt Q13258 (whole entry, looked up): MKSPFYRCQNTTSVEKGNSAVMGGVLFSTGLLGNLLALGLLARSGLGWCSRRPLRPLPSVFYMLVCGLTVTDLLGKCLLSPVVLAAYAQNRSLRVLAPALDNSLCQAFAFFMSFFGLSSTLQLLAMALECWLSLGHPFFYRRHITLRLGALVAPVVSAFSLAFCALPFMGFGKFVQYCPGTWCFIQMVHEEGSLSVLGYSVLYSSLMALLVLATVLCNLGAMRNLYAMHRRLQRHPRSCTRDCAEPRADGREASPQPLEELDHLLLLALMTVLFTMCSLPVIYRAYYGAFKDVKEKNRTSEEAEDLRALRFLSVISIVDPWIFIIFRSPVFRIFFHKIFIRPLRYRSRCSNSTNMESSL

For `O=C(COc1ccc(Cl)cc1Cl)Nc1cc(C2CCC2)nn1C1CCC(F)(F)CC1`, the Emax was 30% (Kir3.1/Kir3.2; thallium flux, activator; HEK293; relative to: standard compound).
For `Cc1ccc2c(c1)C1(CC2)C(=O)NC(=N)NC1=O` (stereo not shown), the Emax was -9% (GABA-A receptor; alpha-1/beta-3/gamma-2; 300 µM).
For `c1ccc([C@H]2CN3CCSC3=N2)cc1`, the Emax was 37% (acetylcholine-gated chloride channel (Haemonchus contortus, UniProt A0A219KWM7); ion current, agonist, two-electrode voltage clamp; Haemonchus contortus, Xenopus oocytes; added: acetylcholine 500 µM; relative to: acetylcholine response).
For `CN=C1NC(=O)C2(CCc3ccccc32)C(=O)N1` (stereo not shown), the Emax was -9% (GABA-A receptor; alpha-1/beta-3/gamma-2; 300 µM).
`CCCCC[C@H](O)/C=C/[C@H]1[C@H](O)CC(=O)[C@@H]1C/C=C\CCCC(=O)O` has an Emax of 76.1 ± 5.09% (PTGER1 (Homo sapiens, UniProt P34995, R63A); IP1 accumulation, agonist; AD293; 1 h, EP1 R63A mutant).
With `CCCCC[C@H](O)/C=C/[C@H]1C(=O)C[C@H](O)[C@@H]1C/C=C\CCCC(=O)O` the Emax was 116 ± 7% (PTGDR (Homo sapiens, UniProt Q13258); agonist).
For `O=C(COc1cccc(Cl)c1Cl)Nc1cc(C2CC2)nn1C1CCC(F)(F)CC1`, the Emax was 52% (Kir3.1/Kir3.2; thallium flux, activator; HEK293; relative to: standard compound).
With `N=C1NC(=O)C2(CCc3ccc(F)cc32)C(=O)N1` (stereo not shown) the Emax was -2% (GABA-A receptor; alpha-1/beta-3/gamma-2; 300 µM).
The Emax of `O=C(COc1ccc(Cl)cc1Cl)Nc1cc(C2CC2)nn1C1CCC(F)(F)CC1` is reported as 56% (Kir3.1/Kir3.2; thallium flux, activator; HEK293; relative to: standard compound).
For `CCOCc1nc(O)c(-c2nnc(Cc3ccc(Cl)cn3)o2)c(O)c1-c1c(OC)cccc1OC`, the Emax was 93 ± 6% (Apelin receptor (APLNR, Homo sapiens, UniProt P35414); Gαi1 activation, agonist, BRET biosensor; HEK293).
